Measured values collected from several papers.
A part holds a random share of what one study measured. Substitutions count along the parent as printed.

Series 1 — target: CCND3, cyclin fold, Cln2 fusion (human); method: yeast growth competition, sequencing; medium: yeast; setting: weak parent motif; reference: not given; reading: higher = stronger binding
Starting sequence: DBF4 docking peptide (human); DDIVSKLVFDFVE; partner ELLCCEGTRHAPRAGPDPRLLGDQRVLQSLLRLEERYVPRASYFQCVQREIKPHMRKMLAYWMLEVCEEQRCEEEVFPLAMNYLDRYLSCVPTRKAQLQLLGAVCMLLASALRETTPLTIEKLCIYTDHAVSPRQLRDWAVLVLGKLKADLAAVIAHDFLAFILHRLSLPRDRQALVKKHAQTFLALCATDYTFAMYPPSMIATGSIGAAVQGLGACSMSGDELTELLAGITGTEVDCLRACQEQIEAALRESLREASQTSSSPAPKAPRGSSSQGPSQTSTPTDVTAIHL
| Substitution | normalised enrichment score |
| --- | --- |
| V8A | -0.0118 |
| D10A | -0.391 |
| K6A | -0.366 |
| L7A | -0.295 |
| E13A | -0.317 |
| V4A | -0.256 |
| D1A | -0.0322 |

Series 2 — method: protein binding microarray; form: double-stranded DNA, one strand shown; medium: in vitro; tested at: not given; reference: not given; reading: higher = stronger binding
Target: Histone acetyltransferase KAT6A, winged helix 2, GST fusion (KAT6A, Homo sapiens, UniProt Q92794, residues 85-181)
Setting: 8-mer, flanks averaged, mean of 2 arrays, mostly near background
Construct (chain): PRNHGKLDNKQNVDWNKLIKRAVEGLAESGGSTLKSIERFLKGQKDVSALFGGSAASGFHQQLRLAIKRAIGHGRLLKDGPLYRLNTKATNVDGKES
| Sequence | E-score |
| --- | --- |
| GACGAGAC | -0.111 |
| CGCAAATC | 0.00421 |
| TAAGTTGA | 0.134 |
| CTCCCGTC | 0.128 |
| ATGTCAAC | -0.129 |
| CTATATAA | -0.136 |
| CCTCCTTA | -0.0129 |
| AGTGGCCA | -0.0959 |
| CTATTAGC | 0.0536 |
| CGAAAAGC | 0.0863 |
| ATTCTTTA | 0.108 |
| AAGTTAGA | -0.0597 |
| CGATGACA | 0.0164 |
| CGGCAACA | 0.0753 |
| AGCATTGA | -0.0225 |
| CGGGCTTC | 0.117 |
| AACTAACC | 0.0825 |
| AGCCTAAA | 0.204 |
| CAGATGAG | 0.00571 |
| GATGGTCA | 0.0734 |
| ATCGGCTG | 0.0703 |

Series 3 — method: DHFR PCA, deep sequencing; medium: yeast; with: (+)-ABA 710 µM; reference: wild-type fitted maximum; reading: higher = stronger binding
Target: ABI1, truncated, D143A, DHFR fusion (Arabidopsis thaliana)
Setting: methotrexate growth selection, single substitutions
Starting sequence: PYL1, truncated, DHFR fusion (Arabidopsis thaliana); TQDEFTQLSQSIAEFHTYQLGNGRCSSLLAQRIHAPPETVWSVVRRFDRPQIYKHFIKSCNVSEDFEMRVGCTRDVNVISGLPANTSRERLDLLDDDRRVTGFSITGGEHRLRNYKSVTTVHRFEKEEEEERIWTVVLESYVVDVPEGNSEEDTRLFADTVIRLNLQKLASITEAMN
| Substitution | relative binding score [%] |
| --- | --- |
| L28V | 103 |
| Q19M | 95.9 |
| R99W | 118 |
| Q7F | 96.7 |
| L20S | 102 |
| L82Q | 75.4 |
| A35I | 65.8 |
| L20E | 102 |
| L8P | 71.6 |
| I133Q | 119 |
| P146N | 65 |
| D65T | 95.5 |
| R111L | 88.5 |
| I57H | 55.8 |
| S27G | 102 |
| G148H | 91.3 |
| L169V | 60.3 |
| G107I | 33.7 |
| N165F | 5.91 |
| L112M | 96.1 |
| I105M | 92.7 |
| S87Y | 27.6 |
| R24D | 95.1 |

Series 4 — method: RNA Bind-n-Seq; form: RNA; medium: in vitro; tested at: not given; reference: input RNA pool; reading: higher = stronger binding
Target: RING finger protein unkempt homolog, zinc fingers 1-6, GST-SBP tag (UNK, Homo sapiens, UniProt Q9C0B0, residues 30-357)
Setting: RNA with constant flanks, human-mouse chimeric sites, ends assumed
Shared flanks, not repeated: GGGAGUUCUACAGUCCGACGAUC … CAACAGAGGAUUGAGCAUCA
Target sequence (chain): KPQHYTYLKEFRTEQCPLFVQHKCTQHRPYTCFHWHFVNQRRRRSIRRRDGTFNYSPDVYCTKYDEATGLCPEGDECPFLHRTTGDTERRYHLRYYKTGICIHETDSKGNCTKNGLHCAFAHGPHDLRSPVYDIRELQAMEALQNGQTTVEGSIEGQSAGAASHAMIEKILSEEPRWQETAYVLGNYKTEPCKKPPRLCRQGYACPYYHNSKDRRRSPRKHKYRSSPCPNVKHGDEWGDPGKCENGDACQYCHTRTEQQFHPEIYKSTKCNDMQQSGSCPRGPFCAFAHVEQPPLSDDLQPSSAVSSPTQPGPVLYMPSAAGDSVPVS
| Sequence | bound/input enrichment |
| --- | --- |
| ACUCAGAGAUUAUAUUCCCAAAGUGCUGGGAGUAAAGGUGUGGCCACCACACCUAACUUGAUGGAUAUAUAUUUUUUUUAAUAUGAAUCUUCCUGUUCGUCCAGGGAAGAAAGAUUUGUU | 0.996 ratio |
| UUCAAAGAAAAGGGCAGCUGUGUCAUUACUUGGGAGACUCUGGGGGAGGGAAAUUCUGUUCUUUUGUUUUUAGUUUUCCCAAAUGAAGCCAAAGUGUGUGUUGAAGAACUGAGAAAAAAU | 0.328 ratio |
| CGCGUCCUCUCGCUGCUGCGGAGCCCGAGCUGGGAACACCCCUUCCGCUGGUACCCUGCACACAGCCGCCUCUUCGAUCAAGCUUUCGGGGUGCCCCGGUUGCCCGAUGAGUGGUCGCAG | 0.089 ratio |
| CUGGCCUUCUGAGCAUCUCUAGUGACCUUUCGUAUAGUCACUGCUUCUGCAUCAGAUACUUUCAGCUGCAACUCCCUACUGGGUGGGGCACCCAUUUCAGGCAGAAGGUUUUGGUACCCU | 0.184 ratio |
| UAUAAUAAUCAUGAAAUUCGUUCUGGAAAGCACAUUGGUGUCUGCAUCUCAGUUGCCAACAAUAGGCUUUUUGUGGGCUCGAUUCCUAAGAGUAAAACCAAGGAGCAGAUUCUUGAGGAA | 0.849 ratio |
| UCUGGUCACACUCGUGUGUAUGGUGUUUGCUUUGUGGAUACUUCACUGGGCAAGUUUUUCAUCGGCCAGUUUUCGGAUGAUCGCCAUUGUUCCAGAUUUAGGACGCUAGUGGCUCACUAU | 0.384 ratio |
| GGUGGGGUGGUCAUUGCCGUUUGAGCUCUGCUGAUUCUUAUGAAUCAUUCAAAACUCUCGUGUAGGGUUGACAAUGUGGGGGGGUGGGGGAUCCAGCUUAUUCUUUUAUUUUCAAGUCCA | 0.678 ratio |
| CAGUCCCCGUGUCCCAGUGCAGGACGAUGUGAACAAAUCGAAGACAUGGACCCUCUAUUGUAGUUCUUGAUUCUCGAAAUGUGCUAUUAUUGUUUGUAAAAAAGGAAUUUUUUUUAAAGA | 0.337 ratio |
| AAUAGAGGAUCCACCUCCCAAAGUGCUGGGAGUAAAGGUGUGGCCACCACACCUAACUUGAUGGAUAUAUAUUUUUUUUAAUAUGAAUCUUCCUGUUCUUCAUCCAGAGAAAGAUUUGUU | 1.07 ratio |
| UCAUUUUUCUCUUUUCUUUCUUUCCUUAAAAGCCUAACUAAAGAUUAGGUUGUAAGAAAAAUAGAAGCCAUGUUUCGAAGACCUGUGUUACAGGUAUUUCGUCAGUUUGUAAGACAUGAG | 0.191 ratio |
| GCUCUUGGGAAUGUAAUCAGCGCCUUGGGAGACAAGAGCAAGAGAGCCACCCAUGUCCCUUACAGAGACUCUAAGCUGACAAGACUCUUGCAGGAUUCCCUCGGGGGUAACAGCCAAACC | 0.165 ratio |

Series 5 — method: competition protein-binding microarray; form: double-stranded DNA, one strand shown; medium: in vitro; tested at: 2 µM; with: Pho4 competitor, 0.05 µM; reading: higher = stronger binding; shared flanks, not repeated: … GTCTTGATTCGCTTGACGCTGCTG
Target: Centromere-binding protein 1, full length, His-tagged (CBF1, Saccharomyces cerevisiae, UniProt P17106, residues 1-351)
Sequence of UniProt P17106 (whole entry, looked up): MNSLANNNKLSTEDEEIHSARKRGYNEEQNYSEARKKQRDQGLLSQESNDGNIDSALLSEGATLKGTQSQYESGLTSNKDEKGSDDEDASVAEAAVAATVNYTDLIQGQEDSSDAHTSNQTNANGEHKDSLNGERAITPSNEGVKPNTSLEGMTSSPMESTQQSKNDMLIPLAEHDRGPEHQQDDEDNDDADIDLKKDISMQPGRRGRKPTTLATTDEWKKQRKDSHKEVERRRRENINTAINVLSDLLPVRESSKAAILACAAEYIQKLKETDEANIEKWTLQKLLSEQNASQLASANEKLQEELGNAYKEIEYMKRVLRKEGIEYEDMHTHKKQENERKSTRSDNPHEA
Setting: whole 60-bp probe, lowest competitor level
| Sequence | fluorescence intensity |
| --- | --- |
| CAACAAACAGTAGCTCGCGTGGCCGAATGGCAACGC | 88.6 a.u. |
| ATAGTGGTGAGCTGGCACGTTTCTCCACACCTAGTA | 113 a.u. |
| CTAACGAAGGTTTGGATAGTGGGTGACAAGCCAAGT | 79 a.u. |
| CTTCTGTAAATTTGTTGAGTGGGTGGACGCGCCCCG | 83.2 a.u. |
| AGCAGTGCTTTTACCCCCGTGCTTTTCGTTACAATA | 174 a.u. |
| ACTGAAAAAAGCCTGCGCGTGCGGAAACAAAACTGC | 106 a.u. |
| CATACCCAACCTTTTCACGTGTCATAAGATATTTGT | 1150 a.u. |
| CTCAAACACCACATCTGCGTGATGGCCGCCCAAAAG | 81.3 a.u. |
| GAAACCTGAAACTGCCACGTGAAGACACCAGGGCTG | 505 a.u. |
| TCATTGCTGGCTTGCCACGTGATGGCAATAGGCTTT | 5000 a.u. |
| GAAATGAGGTTTTAGCACGTGATGGGGAAGCCACAG | 4800 a.u. |
| ACCTCATCACATCGACGCGTGGAACAGCGTTTCTTC | 79.6 a.u. |
| AGGCTCTTTTCCCGTCACGTAAGGTGTGGAAGTTAG | 80.5 a.u. |
| CGTTGCAGGAGCCCGCCCATGGACGCATTTGAGCAA | 45.6 a.u. |
| CACACCAAAAGAGTGTGCGTGTCCTGTCATTCGAGT | 70.3 a.u. |
| CGTCCTAGCGATTGACCTGTGGGTGCCATGAGGAAG | 70.9 a.u. |
| GTATGCACTTGAAACAACGTGTAGACCATCAATTGG | 120 a.u. |
| CGGGGTTAAGTTTGGCTTGTGGGTGGCTTGCAGCAG | 56.4 a.u. |

Series 6 — method: universal PBM; form: double-stranded DNA, one strand shown; medium: in vitro; tested at: not given; reading: higher = stronger binding
Target: Sal-like protein 4, full length isoform B (SALL4, Homo sapiens, UniProt Q9UJQ4-2, residues 1-616)
Setting: 8-mer, flanks averaged, mean of replicates
| Sequence | E-score |
| --- | --- |
| CTAATCAG | 0.0483 |
| TAACGTCA | 0.255 |
| ACTGGGAG | -0.294 |
| ATACACCA | 0.0896 |
| ATGAGGTG | -0.0291 |
| CAGCCGGA | -0.248 |
| ATGGTCTA | 0.0124 |
| GCTTCGCA | -0.0319 |
| TGCCTTAA | -0.0369 |
| GCACCGCC | -0.402 |
| GGAGAAGA | 0.00427 |
| CAGATTGC | 0.0787 |
| GCTAAAAA | 0.135 |
| GTCGCCCA | -0.279 |
| GGCGTAAA | 0.0533 |
| CACTGATG | -0.218 |
| CCGGTAGC | -0.316 |
| ACGATTAC | 0.139 |
| ATCATCTG | 0.0403 |
| CTTGAAAA | 0.275 |
| ACTGGCTA | -0.147 |
| GATGCAAA | 0.131 |
| CAGCAATC | 0.0225 |
| ACCTCGCT | -0.136 |
| CCGACCGG | -0.368 |

Some of these lines once more (series 3):
| Substitution | relative binding score [%] |
| --- | --- |
| L112M | 96.1 |
| L169V | 60.3 |
| I105M | 92.7 |
| R111L | 88.5 |
| Q19M | 95.9 |
| I133Q | 119 |
| R99W | 118 |
| S27G | 102 |
| L20S | 102 |
| A35I | 65.8 |
| D65T | 95.5 |
| L82Q | 75.4 |
| L28V | 103 |
| L8P | 71.6 |
| N165F | 5.91 |
| I57H | 55.8 |
| R24D | 95.1 |
